Results collected from several papers.
Numbered parts are unrelated; each lists some results of a single study.

Study 1 — method: protein-binding microarray; molecule type: hairpin DNA; medium: in vitro; tested at: not given; relative to: not given; direction: higher = stronger binding
Target: Transcription factor SOX-2, HMG box (SOX2, Homo sapiens, UniProt P48431, residues 37-118)
Chain of UniProt P48431 (37-118, looked up): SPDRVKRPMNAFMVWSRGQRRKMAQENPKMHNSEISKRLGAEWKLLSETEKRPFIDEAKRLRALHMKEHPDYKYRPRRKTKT
Setting: whole hairpin DNA, median over replicate spots
Oligonucleotide	median fluorescence
GCAGGCCCACAACTGGCCTCCTGGCCAGTTGTGGGCCTGCACACTCTTTCCCTACACGAC (5mC at 13)	2510 a.u.
GCAGGCCCCCAATGGGCCTCCTGGCCCATTGGGGGCCTGCACACTCTTTCCCTACACGAC (5mC at 8)	2460 a.u.
GCAGGCCCACAATCGGCCTCCTGGCCGATTGTGGGCCTGCACACTCTTTCCCTACACGAC (5mC at 26)	2760 a.u.
GCAGGCCCACAATCAGCCTCCTGGCTGATTGTGGGCCTGCACACTCTTTCCCTACACGAC	3110 a.u.

Study 2 — method: protein binding microarray; molecule type: double-stranded DNA, one strand shown; medium: in vitro; tested at: not given; relative to: not given; direction: higher = stronger binding
Target: Histone acetyltransferase KAT6A, both winged helices, GST fusion (KAT6A, Homo sapiens, UniProt Q92794, residues 1-181)
Setting: 8-mer, flanks averaged, mean of 2 arrays, mostly near background
Target sequence (chain): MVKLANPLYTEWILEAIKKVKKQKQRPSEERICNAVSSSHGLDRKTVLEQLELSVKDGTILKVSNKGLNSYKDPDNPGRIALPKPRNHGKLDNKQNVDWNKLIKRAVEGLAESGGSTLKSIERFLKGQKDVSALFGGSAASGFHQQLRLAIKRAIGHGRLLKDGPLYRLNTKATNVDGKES
Oligonucleotide	E-score
ACGCATTG	0.193
GAACACTC	0.067
AAGACAGA	-0.00796
GAGCGCCC	0.107
AGCGTAAT	0.0256

Study 3 — method: protein-binding microarray; molecule type: double-stranded DNA, one strand shown; medium: in vitro; tested at: 940 nM top; setting: 60-bp whole probe; with: salmon DNA 0.4 mg/ml; relative to: random background probes; direction: higher = stronger binding; constant ends, left off below: GCCTAGCAC … GTCTTGATTCGCTTGACGCTGCTG
Target: Interferon regulatory factor 5, full length, phosphomimetic (IRF5, Homo sapiens, UniProt Q13568-2, residues 1-514, S451D/S453D/S456D/S462D)
Oligonucleotide	fitted relative affinity
GACGATTTCGGCTATCGAGACGTGCTA	0.65 z-score
TTAGATCTCAGTCCCGATTAGTGCTAG	0.327 z-score
TTAGGTTTCGACTATCGGATAGTGCTA	9.88 z-score
GACGAAGTGAGTATCGAGACGTGCTAG	1.88 z-score
GACGGACTAGGGACTGGGGACGTGCTA	-0.342 z-score
TCAACTCTCTAATTTTGAGAGTGCTAG	0.229 z-score

Other studies, line by line
Molecule	target	test	test system	setting	how to read	measurement	value
PhoQ, residues 284 288 289 292 302 303 SSCLAV	PhoP, residues 12 14 15 18 19 SEGLL (Escherichia coli, UniProt P23836)	Sort-seq, measured: YFP reporter	E. coli	PhoQ-PhoP variant library, with: 10 µM Mg2+	relative to: high Mg2+ state, higher = stronger signaling	fold induction	15

Repeated from above (study 2):
Oligonucleotide	E-score
GAACACTC	0.067
ACGCATTG	0.193
